Results of several laboratories.
Protocols differ between the studies behind these lines. Several values in a cell are separate wells, animals, samples, runs or records. ± marks the error that the study gave.
DDR2: Discoidin domain-containing receptor 2 (DDR2, Homo sapiens, UniProt Q16832)
Sequence of UniProt Q16832 (whole entry, looked up): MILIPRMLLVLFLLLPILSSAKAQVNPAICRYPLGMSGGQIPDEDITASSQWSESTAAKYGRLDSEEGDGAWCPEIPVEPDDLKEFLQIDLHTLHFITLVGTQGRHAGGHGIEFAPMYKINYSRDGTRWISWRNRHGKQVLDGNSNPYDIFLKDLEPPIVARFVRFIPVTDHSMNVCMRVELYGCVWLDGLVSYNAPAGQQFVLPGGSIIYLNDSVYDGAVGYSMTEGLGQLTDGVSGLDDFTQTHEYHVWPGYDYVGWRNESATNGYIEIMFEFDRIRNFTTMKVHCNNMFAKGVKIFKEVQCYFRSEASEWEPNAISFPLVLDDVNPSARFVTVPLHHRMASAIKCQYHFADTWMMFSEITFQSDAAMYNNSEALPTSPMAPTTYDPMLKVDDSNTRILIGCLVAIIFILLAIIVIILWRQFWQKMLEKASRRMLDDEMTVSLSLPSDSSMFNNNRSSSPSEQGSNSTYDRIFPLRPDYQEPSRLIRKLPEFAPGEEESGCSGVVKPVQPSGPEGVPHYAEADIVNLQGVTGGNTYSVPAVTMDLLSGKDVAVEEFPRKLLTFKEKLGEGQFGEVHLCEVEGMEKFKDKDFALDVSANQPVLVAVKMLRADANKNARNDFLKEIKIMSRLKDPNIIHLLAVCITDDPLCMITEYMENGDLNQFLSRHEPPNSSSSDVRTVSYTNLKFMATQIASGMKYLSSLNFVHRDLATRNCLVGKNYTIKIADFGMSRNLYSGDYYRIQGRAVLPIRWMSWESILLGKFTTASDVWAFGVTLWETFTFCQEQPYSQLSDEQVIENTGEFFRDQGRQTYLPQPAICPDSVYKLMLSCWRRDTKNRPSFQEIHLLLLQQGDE
Gria2: Glutamate receptor 2 (Gria2, Rattus norvegicus, UniProt P19491)
Sequence of UniProt P19491 (whole entry, looked up): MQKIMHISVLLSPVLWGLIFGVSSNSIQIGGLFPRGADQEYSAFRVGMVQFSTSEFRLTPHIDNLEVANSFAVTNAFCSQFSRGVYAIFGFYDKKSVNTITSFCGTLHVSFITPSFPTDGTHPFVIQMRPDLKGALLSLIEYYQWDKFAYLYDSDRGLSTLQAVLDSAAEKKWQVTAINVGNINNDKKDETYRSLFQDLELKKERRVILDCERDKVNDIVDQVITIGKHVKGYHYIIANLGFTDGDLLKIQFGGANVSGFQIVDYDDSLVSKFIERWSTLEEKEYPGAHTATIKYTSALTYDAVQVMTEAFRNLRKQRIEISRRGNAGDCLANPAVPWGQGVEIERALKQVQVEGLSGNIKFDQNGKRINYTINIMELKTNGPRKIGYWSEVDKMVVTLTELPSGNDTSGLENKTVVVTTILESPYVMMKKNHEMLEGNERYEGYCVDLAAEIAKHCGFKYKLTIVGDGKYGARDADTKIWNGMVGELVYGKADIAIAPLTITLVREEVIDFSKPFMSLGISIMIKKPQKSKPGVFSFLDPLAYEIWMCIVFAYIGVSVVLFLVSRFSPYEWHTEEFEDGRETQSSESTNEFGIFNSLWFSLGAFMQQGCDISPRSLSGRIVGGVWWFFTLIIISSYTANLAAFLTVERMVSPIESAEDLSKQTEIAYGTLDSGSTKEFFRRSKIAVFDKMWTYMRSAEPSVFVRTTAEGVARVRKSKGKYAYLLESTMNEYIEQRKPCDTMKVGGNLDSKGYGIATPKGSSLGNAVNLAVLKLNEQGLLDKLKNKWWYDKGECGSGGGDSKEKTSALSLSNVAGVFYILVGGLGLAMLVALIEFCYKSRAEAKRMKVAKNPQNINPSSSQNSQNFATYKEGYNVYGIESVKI
CDK4: Cyclin-dependent kinase 4 (CDK4, Homo sapiens, UniProt P11802)
Sequence of UniProt P11802 (whole entry, looked up): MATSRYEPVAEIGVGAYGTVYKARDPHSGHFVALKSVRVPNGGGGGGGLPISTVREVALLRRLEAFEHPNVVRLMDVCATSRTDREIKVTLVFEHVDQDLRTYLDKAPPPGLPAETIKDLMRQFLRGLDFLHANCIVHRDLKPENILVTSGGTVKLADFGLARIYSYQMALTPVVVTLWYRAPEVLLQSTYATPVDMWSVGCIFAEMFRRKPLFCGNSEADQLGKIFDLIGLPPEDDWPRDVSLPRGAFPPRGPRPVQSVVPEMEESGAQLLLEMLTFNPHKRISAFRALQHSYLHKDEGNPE
GNRHR: Gonadotropin-releasing hormone receptor (GNRHR, Homo sapiens, UniProt P30968)
Sequence of UniProt P30968 (whole entry, looked up): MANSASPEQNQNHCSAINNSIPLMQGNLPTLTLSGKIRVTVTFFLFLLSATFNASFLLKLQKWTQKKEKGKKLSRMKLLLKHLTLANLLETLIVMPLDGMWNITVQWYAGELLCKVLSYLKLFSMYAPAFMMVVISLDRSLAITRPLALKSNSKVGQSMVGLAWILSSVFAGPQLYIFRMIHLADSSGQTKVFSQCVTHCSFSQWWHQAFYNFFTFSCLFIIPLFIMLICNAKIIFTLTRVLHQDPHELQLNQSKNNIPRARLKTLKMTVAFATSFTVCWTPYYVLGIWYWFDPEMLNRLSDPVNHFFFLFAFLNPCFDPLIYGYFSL
SIRT5: NAD-dependent protein deacylase sirtuin-5, mitochondrial (SIRT5, Homo sapiens, UniProt Q9NXA8)
Sequence of UniProt Q9NXA8 (whole entry, looked up): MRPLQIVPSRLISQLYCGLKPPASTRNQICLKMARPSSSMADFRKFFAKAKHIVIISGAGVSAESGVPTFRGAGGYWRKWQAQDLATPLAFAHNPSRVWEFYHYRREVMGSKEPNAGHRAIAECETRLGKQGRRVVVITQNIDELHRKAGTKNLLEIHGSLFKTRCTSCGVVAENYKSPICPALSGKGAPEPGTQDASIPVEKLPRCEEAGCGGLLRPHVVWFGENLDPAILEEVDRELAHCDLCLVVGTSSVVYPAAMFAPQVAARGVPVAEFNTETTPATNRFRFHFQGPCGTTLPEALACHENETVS
VKORC1: Vitamin K epoxide reductase complex subunit 1 (VKORC1, Homo sapiens, UniProt Q9BQB6)
Sequence of UniProt Q9BQB6 (whole entry, looked up): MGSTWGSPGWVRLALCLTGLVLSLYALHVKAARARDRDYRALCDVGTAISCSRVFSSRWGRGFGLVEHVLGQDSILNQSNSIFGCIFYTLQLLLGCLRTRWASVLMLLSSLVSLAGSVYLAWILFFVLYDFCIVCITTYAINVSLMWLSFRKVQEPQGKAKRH
MARS2: Methionine--tRNA ligase, mitochondrial (MARS2, Homo sapiens, UniProt Q96GW9)
Sequence of UniProt Q96GW9 (whole entry, looked up): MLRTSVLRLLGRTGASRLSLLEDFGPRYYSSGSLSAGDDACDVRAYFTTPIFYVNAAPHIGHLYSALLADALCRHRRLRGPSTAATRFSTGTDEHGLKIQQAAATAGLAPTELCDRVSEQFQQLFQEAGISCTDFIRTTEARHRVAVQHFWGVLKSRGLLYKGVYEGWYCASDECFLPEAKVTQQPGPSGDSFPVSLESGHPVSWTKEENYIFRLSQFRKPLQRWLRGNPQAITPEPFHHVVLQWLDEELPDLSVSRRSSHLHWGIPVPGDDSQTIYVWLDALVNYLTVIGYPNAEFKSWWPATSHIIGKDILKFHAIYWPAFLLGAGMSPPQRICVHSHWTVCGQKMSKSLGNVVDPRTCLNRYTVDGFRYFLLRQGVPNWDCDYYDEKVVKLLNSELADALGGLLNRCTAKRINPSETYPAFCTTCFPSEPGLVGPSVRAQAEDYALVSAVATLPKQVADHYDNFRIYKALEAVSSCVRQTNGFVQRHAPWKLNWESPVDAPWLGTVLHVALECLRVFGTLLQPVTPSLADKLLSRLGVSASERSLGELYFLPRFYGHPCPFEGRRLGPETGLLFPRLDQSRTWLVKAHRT
HDAC11: Histone deacetylase 11 (HDAC11, Homo sapiens, UniProt Q96DB2)
Sequence of UniProt Q96DB2 (whole entry, looked up): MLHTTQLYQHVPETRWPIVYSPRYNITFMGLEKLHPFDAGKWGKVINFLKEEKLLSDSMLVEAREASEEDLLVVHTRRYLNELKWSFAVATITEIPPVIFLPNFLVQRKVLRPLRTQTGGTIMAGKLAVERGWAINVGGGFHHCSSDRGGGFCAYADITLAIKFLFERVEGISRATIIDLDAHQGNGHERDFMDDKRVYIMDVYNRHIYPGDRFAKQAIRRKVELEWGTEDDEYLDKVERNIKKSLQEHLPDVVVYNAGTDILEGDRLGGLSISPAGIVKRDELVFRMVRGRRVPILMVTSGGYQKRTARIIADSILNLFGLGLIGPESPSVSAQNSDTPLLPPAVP
DGKA: Diacylglycerol kinase alpha (DGKA, Homo sapiens, UniProt P23743)
Sequence of UniProt P50613 (whole entry, looked up): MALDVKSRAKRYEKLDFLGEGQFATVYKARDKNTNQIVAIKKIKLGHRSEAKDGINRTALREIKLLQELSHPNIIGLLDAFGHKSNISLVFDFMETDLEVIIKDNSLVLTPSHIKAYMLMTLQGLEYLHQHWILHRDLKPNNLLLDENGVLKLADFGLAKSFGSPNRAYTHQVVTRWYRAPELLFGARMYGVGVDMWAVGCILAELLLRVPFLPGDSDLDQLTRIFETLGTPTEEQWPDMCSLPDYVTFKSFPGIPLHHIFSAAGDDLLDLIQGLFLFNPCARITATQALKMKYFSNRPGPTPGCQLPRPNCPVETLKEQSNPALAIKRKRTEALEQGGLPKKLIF
Sequence of UniProt P08684 (whole entry, looked up): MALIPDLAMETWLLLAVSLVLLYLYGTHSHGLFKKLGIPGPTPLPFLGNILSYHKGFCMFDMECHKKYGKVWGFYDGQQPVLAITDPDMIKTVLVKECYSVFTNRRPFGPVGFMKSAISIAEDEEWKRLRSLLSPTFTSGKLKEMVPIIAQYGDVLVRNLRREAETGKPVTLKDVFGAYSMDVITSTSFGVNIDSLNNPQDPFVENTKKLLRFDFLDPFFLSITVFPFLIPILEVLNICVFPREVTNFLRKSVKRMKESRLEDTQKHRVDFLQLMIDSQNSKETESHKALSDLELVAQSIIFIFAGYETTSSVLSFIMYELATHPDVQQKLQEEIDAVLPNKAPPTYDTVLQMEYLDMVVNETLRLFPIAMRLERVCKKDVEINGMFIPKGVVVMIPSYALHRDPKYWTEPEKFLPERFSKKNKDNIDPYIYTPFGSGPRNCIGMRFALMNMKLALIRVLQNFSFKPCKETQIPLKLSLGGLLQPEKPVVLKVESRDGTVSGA
Sequence of UniProt P09936 (whole entry, looked up): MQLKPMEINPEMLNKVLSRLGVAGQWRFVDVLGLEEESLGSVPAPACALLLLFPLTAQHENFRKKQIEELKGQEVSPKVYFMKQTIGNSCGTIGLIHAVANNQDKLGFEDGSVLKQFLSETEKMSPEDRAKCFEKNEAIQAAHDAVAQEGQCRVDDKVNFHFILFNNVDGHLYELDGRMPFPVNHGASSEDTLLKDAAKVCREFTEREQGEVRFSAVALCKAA

CN1CCc2cc(Br)c(O)cc2C(c2ccc(NC(=O)CCOCCOCCOCCOCCN=[N+]=[N-])cc2)C1 (centres unmarked)  IC50 (DRD1 (Homo sapiens, UniProt P21728); cell-based): 141 nM
O=C(CN1CN(c2ccccc2)C2(CCN(C(=O)c3ccc4[nH]ncc4c3)CC2)C1=O)NCCN1CCOCC1  IC50 (DDR2; ligand displacement): 1640 nM
Nc1ncnc2c1ncn2[C@@H]1C(F)=C(CO)[C@@H](O)[C@H]1O  IC50 (AHCY (Homo sapiens, UniProt P23526); enzyme activity, inhibitor): 150 nM
O=C(O)Cc1cc2c(cc1C(=O)c1ccccc1)OCO2  IC50 (Gria2; ion current, patch clamp): 5360 nM
Cc1nc2c(F)cc(-c3nc(Nc4ccc(CC(=O)NCCCCCCC(=O)NO)cc4)ncc3F)cc2n1C(C)C  IC50 (CDK4): 1.3 nM
CC(C)C[C@H](NC(=O)[C@@H](CCCCNC(=O)[C@@H](Cc1ccccc1)NC(=O)CCCCCNC(=O)CN1CCN(CC(=O)O)CCN(CC(=O)O)CCN(CC(=O)O)CC1)NC(=O)[C@H](Cc1ccc(O)cc1)NC(=O)[C@H](CO)NC(=O)[C@H](Cc1c[nH]c2ccccc12)NC(=O)[C@H](Cc1c[nH]cn1)NC(=O)[C@@H]1CCC(=O)N1)C(=O)N[C@@H](CCCNC(=N)N)C(=O)N1CCC[C@H]1C(=O)NCC(N)=O  IC50 (GNRHR; ligand displacement, radioligand; pH 7.4, cell membranes): 7.6 nM
Cc1cc(C(=O)NCC(F)(F)c2ccc(Cl)cc2Cl)c(Oc2cccc(C3CC3)c2)nn1  IC50 (serine palmitoyltransferase (Botrytis cinerea, UniProt A0A384JAG3+A0A384JQT2)): 2 nM
COC(=O)Cc1cc2c(cc1C(=O)c1ccccc1)OCO2  IC50 (Gria2; glutamate-evoked current, inhibitor, whole-cell patch clamp; HEK293T, homomeric receptor): 5890 nM
O=C(NC1CCC1)[C@H](Cc1c[nH]c2ccccc12)NC(=O)[C@H](CCCCNC(=S)NCCc1n[nH]c(=S)o1)NS(=O)(=O)c1cccc(F)c1  IC50 (SIRT5; enzyme activity, inhibitor): 5400 ± 500 nM
C/C1=C\CC/C(C)=C/CC(C)(C)/C=C/C1  IC50 (TRPV4 (Homo sapiens, UniProt Q9HBA0); ion current, patch clamp): 18000 nM
CC(C)(C)n1ncc2c(=O)n(Cc3cccc(F)c3)c(NCc3ccc(F)cn3)nc21  IC50 (Cytochrome P450 3A4 (CYP3A4, Homo sapiens, UniProt P08684); inhibitor): 17100 nM
O=C(Cc1ccc(OCc2ccccc2)cc1)NC1(C(=O)O)CCN(C(=O)c2ccc(-c3cccc(Cl)c3)cc2)CC1  IC50 (GNRHR; IP-1 accumulation, antagonist): > 10000 nM
Cc1nc2c(F)cc(-c3nc(Nc4ccc(NC(=O)CCCCC(=O)NO)cc4)ncc3F)cc2n1C(C)C  IC50 (CDK4): 1.2 nM
N=C(N)NCCC[C@H](NC(=O)[C@H](CCCCNC(=S)NCCC(=O)O)NS(=O)(=O)c1cccc(F)c1)C(=O)NC1CCC1  IC50 (SIRT5; inhibitor, fluorogenic; pre-incubation 16 h, together with: NAD+ 500 µM): 86 ± 4 nM
Cc1nc(O)c2nnn(CC3CCCN(C(=O)c4c(F)cccc4F)C3)c2n1 (centres unmarked)  IC50 (VKORC1; carboxylation, inhibitor, ELISA; HEK293 stably expressing; 24 h, together with: vitamin K epoxide 5 µM): > 100000 nM
Clc1ccc(NN=C(c2ccccc2)c2ccccn2)nc1  IC50 (KDM4A (Homo sapiens, UniProt O75164); enzyme activity, inhibitor, ELISA): 445 nM
CC1(C)C(=O)N=C2C1=C(O)C(=O)c1ccccc12  IC50 (PRMT1 (Homo sapiens, UniProt Q99873); enzyme activity, inhibitor): > 100000 nM
O=C(CN1CN(c2ccccc2)C2(CCN(C(=O)c3ccc4[nH]ncc4c3)CC2)C1=O)NCC(F)(F)F  IC50 (DDR2; ligand displacement): 820 nM
Cc1nn(-c2cccc(N)c2)c(=O)c2cnc(Nc3ccc(N4CCNCC4)cc3)nc12  IC50 (RPS6KA3 (Homo sapiens, UniProt P51812); enzyme activity, inhibitor): 1490 nM
Cc1nc2c(F)cc(-c3nc(Nc4ccc(CNC(=O)CCCCC(=O)NO)cc4)ncc3F)cc2n1C(C)C  IC50 (CDK4): 0.87 nM
Nc1n[nH]c2cc(C(=O)N3CCC4(CC3)C(=O)N(CC(=O)NCC(F)(F)F)CN4c3ccccc3)ccc12  IC50 (DDR2; ligand displacement): 26000 nM
O=c1cc(-c2cccc(O)c2)oc2c1ccc1occc12  IC50 (Cyclin-dependent kinase 7, with cyclin H (CDK7, Homo sapiens, UniProt P50613); enzyme activity, inhibitor, ADP detection): 933 nM and 930 nM
Clc1cc(Cl)c2c(c1)[C@H](NCCCNc1nc3cccnc3[nH]1)CCO2  IC50 (MARS2; enzyme activity, inhibitor): 17.5 nM
O=C(Cn1ncc2cccn2c1=O)N1CCCC1  IC50 (VKORC1; carboxylation, inhibitor, cell-based): 32600 nM
COC(=O)CCCC(=O)Nc1ccc(Nc2ncc(F)c(-c3cc(F)c4nc(C)n(C(C)C)c4c3)n2)cc1  IC50 (CDK4): 2.1 nM
CC[C@H](C)[C@@H]1NC(=O)[C@H](Cc2ccccc2C(F)(F)F)NC(=O)CCSCc2cccc(n2)CSCCCNC(=O)[C@H](CCCCCC(=O)N(O)CCCCCCCl)NC1=O  IC50 (HDAC11; enzyme activity, inhibitor, fluorescence): 23 nM
CCCC[C@H](NC(=O)[C@H](CS)NC(=O)[C@H](Cc1c[nH]c2ccccc12)NC(=O)[C@H](CCCNC(=N)N)NC(=O)[C@@H](Cc1ccccc1)NC(=O)[C@H](Cc1c[nH]cn1)NC(=O)[C@H](CCC(=O)O)NC(=O)[C@H](CS)NC(=O)[C@H](CS)NC(C)=O)C(=O)NCC(=O)NCC(N)=O  IC50 (Mc1r (Mus musculus, UniProt Q01727); ligand displacement, radioligand): 70.9 nM
CC[C@H]1CN([C@@H](CC)c2ccc(C(F)(F)F)cc2)[C@H](CC)CN1c1nc(=O)n(C)c2ccc(C#N)nc12  IC50 (DGKA; enzyme activity, inhibitor, ADP detection): 0.3 nM
Fc1ccc2nc(NCCCNCc3cc(Cl)cc(Cl)c3)[nH]c2n1  IC50 (MARS2; enzyme activity, inhibitor): 19.5 nM
CCN(CC)CC(=O)Nc1cccc(-n2cc(-c3ccc4ccc(-c5cn(-c6cccc(NC(=O)CN(CC)CC)c6)nn5)cc4c3)nn2)c1  IC50 (MAPKAPK5 (Homo sapiens, UniProt Q8IW41); enzyme activity, inhibitor): > 10000 nM
Cc1nc2c(F)cc(-c3nc(Nc4ccc(NC(=O)CCCCCC(=O)NO)cc4)ncc3F)cc2n1C(C)C  IC50 (CDK4): 1.2 nM
O=C(CCl)Nc1nc2ccc([N+](=O)[O-])cc2s1  IC50 (UCHL1 (Homo sapiens, UniProt P09936); enzyme activity, inhibitor, Ub-rhodamine): 14000 nM
O=C(O)Cc1cc2c(cc1C(=O)c1ccc(Cl)cc1Cl)OCO2  IC50 (Gria2; ion current, patch clamp): 3730 nM
COC(=O)CCCCCCCC(=O)Nc1ccc(Nc2ncc(F)c(-c3cc(F)c4nc(C)n(C(C)C)c4c3)n2)cc1  IC50 (CDK4): 4.3 nM
COc1c(Cl)cccc1Nc1c(-c2ccncc2C#C[C@@]2(C)CCCN2C(=O)/C=C/CN(C)C)[nH]c2c1C(=O)NCC2  IC50 (ERBB2 (Homo sapiens, UniProt P04626)): 1.1 nM
Cc1cc(C)n(-c2nc(OCC(=O)N(C)CCc3ccccc3)cc(-c3ccccc3)n2)n1  IC50 (LNPEP (Homo sapiens, UniProt Q9UIQ6); enzyme activity, inhibitor, fluorescence): 4000 nM
Cc1c(OS(=O)(=O)Oc2ccccc2-c2ccccc2)cccc1C(=O)NO  IC50 (HDAC11): 491 nM
CCOC(=O)c1cnc(NCc2cccc(NC(=O)c3cc(-c4ccccc4)n(-c4ccccc4)n3)c2)nc1  IC50 (Genome polyprotein, NS2B-NS3 protease (dengue virus type 2, UniProt P29990); enzyme activity; together with: AMC substrate 50 µM): 21000 nM
C[C@@H]1CN(c2cc(=O)n(C)c3ccc(C#N)nc23)[C@H](C)CN1Cc1ccc(S(=O)(=O)n2cnc(C3CC3)n2)cc1  IC50 (DGKA; inhibitor, ADP-Glo; together with: DAG micelles): 1920 nM
O=C(O)CCNC(=S)NCCCC[C@H](NS(=O)(=O)c1cccc(F)c1)C(=O)N[C@@H](Cc1c[nH]c2ccccc12)C(=O)NC1CCC1  IC50 (SIRT5; inhibitor, fluorogenic; pre-incubation 4 h, together with: NAD+ 500 µM): 74 nM and 72 nM
COc1cc(C(=O)/C=C/c2ccc(C(C)C)cc2)cc(OC)c1OC  IC50 (MAOA (Homo sapiens, UniProt P21397); enzyme activity, inhibitor): > 40000 nM
O=C(NCC1CCOCC1)c1n[nH]cc1NC(=O)c1c(F)cccc1F  IC50 (CDKL5 (Homo sapiens, UniProt O76039); target engagement in cells, BRET): 1400 nM
N#Cc1cccc(N2CN(CC(=O)NCC(F)(F)F)C(=O)C23CCN(C(=O)c2cnc4[nH]ncc4c2)CC3)c1  IC50 (DDR2; ligand displacement): 56900 nM
CC1CCCN(C(=O)Cn2ncc3cccn3c2=O)C1 (centres unmarked)  IC50 (VKORC1; carboxylation, inhibitor, cell-based): 22500 nM

Some of these lines once more:
CN1CCc2cc(Br)c(O)cc2C(c2ccc(NC(=O)CCOCCOCCOCCOCCN=[N+]=[N-])cc2)C1 (centres unmarked)  IC50 (DRD1 (Homo sapiens, UniProt P21728); cell-based): 141 nM
Cc1c(OS(=O)(=O)Oc2ccccc2-c2ccccc2)cccc1C(=O)NO  IC50 (HDAC11): 491 nM
O=C(O)Cc1cc2c(cc1C(=O)c1ccc(Cl)cc1Cl)OCO2  IC50 (Gria2; ion current, patch clamp): 3730 nM
COC(=O)CCCC(=O)Nc1ccc(Nc2ncc(F)c(-c3cc(F)c4nc(C)n(C(C)C)c4c3)n2)cc1  IC50 (CDK4): 2.1 nM
Cc1nc2c(F)cc(-c3nc(Nc4ccc(NC(=O)CCCCC(=O)NO)cc4)ncc3F)cc2n1C(C)C  IC50 (CDK4): 1.2 nM
O=C(CN1CN(c2ccccc2)C2(CCN(C(=O)c3ccc4[nH]ncc4c3)CC2)C1=O)NCC(F)(F)F  IC50 (DDR2; ligand displacement): 820 nM
